Values quoted from earlier work that unrelated publications cite.
Each line is one published result; not all experiments were run side by side. ± marks the error that the study gave. ≈ marks a conversion by molar mass, not a printed value.

For CC(=O)O[C@H]1Cc2ccccc2N(C(N)=O)c2ccccc21, the TD50 was 314 mg/kg (motor impairment, rotarod test; mouse; 15 rpm for 3 min).
CN[C@H](CC(C)C)C(=O)N[C@H]1C(=O)N[C@@H](CC(N)=O)C(=O)N[C@H]2C(=O)N[C@H]3C(=O)N[C@H](C(=O)N[C@H](C(=O)O)c4cc(O)cc(O)c4-c4cc3ccc4O)[C@H](O)c3ccc(c(Cl)c3)Oc3cc2cc(c3O[C@@H]2O[C@H](CO)[C@@H](O)[C@H](O)[C@H]2O[C@H]2C[C@](C)(N)[C@H](O)[C@H](C)O2)Oc2ccc(cc2Cl)[C@H]1O: “volume of distribution” 0.83 L/kg (underweight adults; dose not given, weight below 80% of ideal).
With CC[C@H](C)[C@H](NC(=O)[C@H](CCCCN)NC(=O)[C@H](CCCCN)NC(=O)[C@H](Cc1c[nH]cn1)NC(=O)[C@H](CC(C)C)NC(=O)[C@H](CCCCN)NC(=O)[C@H](Cc1ccccc1)NS(=O)(=O)c1ccc(C)cc1)C(=O)N[C@@H](CC(C)C)C(=O)N[C@@H](CCCCN)C(=O)N[C@H](C(=O)N[C@@H](CC(C)C)C(N)=O)C(C)C the hemolysis was 4 ± 1.3% (horse erythrocytes 5 % v/v; 150 µM).
Under “therapeutic plasma concentration”, CCCC(CCC)C(=O)O is recorded as 50 to 150 µg/mL (human, plasma; total concentration, therapeutic range).
ClC(Cl)(Cl)Cl: “urinary microRNA levels” “increased” (rat, urine; oral, 2000 mg/kg, 24 h).
For CCCCCCCCCCCCCCCC(=O)NCCCC[C@H](NC(=O)[C@H](CCCCN)NC(=O)[C@H](CCCCN)NC(=O)[C@@H]1CCCN1C(=O)CNC(=O)[C@H](CC(C)C)NC(=O)[C@H](CC(C)C)NC(=O)[C@H](Cc1ccc(O)cc1)NC(=O)CNC(=O)[C@H](C)NC(=O)[C@H](CO)NC(=O)[C@H](CC(N)=O)NC(=O)[C@H](CC(C)C)NC(=O)[C@@H](NC(=O)[C@H](Cc1c[nH]c2ccccc12)NC(=O)CNC)[C@@H](C)O)C(=O)N[C@@H](CCCCN)C(N)=O, the logD was 1.24 (calculated from HPLC retention time; octanol/PBS).
O=C(O)C(F)(F)C(F)(F)C(F)(F)C(F)(F)C(F)(F)C(F)(F)C(F)(F)F gave a serum concentration of 80 ng/mL (residents near PFAS plants, serum; concentration not given).
For Cc1ccc(OCC(=O)N(Cc2cccs2)c2ccn[nH]2)cc1, the NOAEL was 100 mg/kg/day (Crl:CD(SD) rats, male and female; 28 days).
COc1ccc(C(CN(C)C)C2(O)CCCCC2)cc1 (centres unmarked) — result for “discontinuation due to hypertension”: 0.7 to 1.3% (adult patients; dose not given; reference: patients).
For CN1CCN(C2=Nc3ccccc3Oc3ccc(Cl)cc32)CC1, the Cmax was 140 nM (human, plasma; concentration not given, median of reported values).
CC1(C)CCC(CN2CCN(c3ccc(C(=O)NS(=O)(=O)c4ccc(NCC5CCOCC5)c([N+](=O)[O-])c4)c(Oc4cnc5[nH]ccc5c4)c3)CC2)=C(c2ccc(Cl)cc2)C1 gave an AUC increase of 6.4 fold (human, non-Hodgkin's lymphoma patients; 50 mg single dose, added: ketoconazole 400 mg once daily; reference: without ketoconazole).
For Nc1nc(N)nc(N)n1, kidney findings read “negative” (wet-mount and histology; rat fetuses and neonates, kidney; 1000 mg/kg/day to dams).
CC1=C(/C=C/C(C)=C/C=C/C(C)=C/C(=O)O)C(C)(C)CCC1 gave a Cmax of ~1000 nM (rat, plasma; concentration not given, at LOAEL).
For CCN(CCCOc1ccc2c(Nc3cc(CC(=O)Nc4cccc(F)c4)n[nH]3)ncnc2c1)CCOP(=O)(O)O, “maximum tolerated dose” read 1200 mg (elderly AML patients, age ≥sample A years; monotherapy, Western population).
CC(C)C[C@H](NC(=O)[C@H](Cc1ccccc1)NC(=O)c1cnccn1)B(O)O — result for “maximum tolerated dose”: 1.2 mg/m² (children with refractory solid tumours; intravenous).
[Cl][Mn][Cl] gave a Cmax of 53 nM (plasma; concentration not given).
CN[C@H]1CC[C@@H](c2ccc(Cl)c(Cl)c2)c2ccccc21 has a QTc interval of 370 ms (human; 2250 mg, at admission, added: diazepam 200 mg and temazepam 400 mg).
Under liver weight, O=S(=O)([O-])C(F)(F)C(F)(F)C(F)(F)C(F)(F)C(F)(F)C(F)(F)F.[K+] is recorded as “increased” (mouse; oral gavage, 1.6 to 14 mg/kg/day, 28 days).
O=C(O)C(F)(F)C(F)(F)C(F)(F)C(F)(F)C(F)(F)C(F)(F)C(F)(F)F: “renal clearance fraction” 50 to 80% (rat; reference: renal over total clearance).
For Clc1ccc(Cl)c(-c2c(Cl)ccc(Cl)c2Cl)c1Cl, the enantiomeric fraction was 0.49 (Sprague-Dawley rat; intraperitoneal, racemate dosed).
C1CO1: “Vmax of hydrolysis” 1.5 to 2 nmol/min/mg protein (mouse and rat liver microsomes; 15 mM).
Under “maximum whole-body concentration”, CNCCN1C(=O)[C@H](OC(C)=O)[C@H](c2ccc(OC)cc2)Sc2ccccc21 is recorded as 1.5 ng/g (juvenile Chinook salmon, whole body wet weight; concentration not given, field-collected).
For C[C@@H]1[C@H](O)[C@@H](C)/C=C/C=C/C=C/C=C/C=C/C=C/C=C/[C@H](O[C@@H]2O[C@H](C)[C@@H](O)[C@H](N)[C@@H]2O)C[C@@H]2O[C@](O)(C[C@@H](O)C[C@@H](O)[C@H](O)CC[C@@H](O)C[C@@H](O)CC(=O)O[C@H]1C)C[C@H](O)[C@H]2C(=O)O, the all-cause mortality was ≤ 24% (paediatric patients, invasive candidiasis; dose not given, initial therapy).
For CC1=C(/C=C/C(C)=C/C=C/C(C)=C/C(=O)Nc2ccc(O)cc2)C(C)(C)CCC1, the concentration decrease was 50% (mouse, plasma and tissues; dose not given, added: phenobarbital pretreatment).
For N#Cc1c(Cl)cccc1Cl, “lowest dose with nasal lesions” read 12 mg/kg (mouse, nasal mucosa; intraperitoneal).
With CCCC(=O)NCCCC[C@H](NC(=O)[C@@H](NC(=O)[C@H](CCCCN)NC(=O)[C@H](CCCCN)NC(=O)[C@@H](Cc1ccccc1)NC(=O)[C@H](CC(C)C)NC(=O)[C@H](CCCCN)NC(=O)[C@H](CCCCN)NC(C)=O)[C@@H](C)CC)C(=O)N[C@@H](CCCCN)C(=O)N[C@@H](Cc1ccc(O)cc1)C(=O)N[C@@H](CC(C)C)C(N)=O the hemolysis was 0% (horse erythrocytes 5 % v/v; 150 µM).
CCCCCOc1ccc(-c2cc(-c3ccc(C(=O)N[C@H]4C[C@@H](O)[C@@H](O)NC(=O)[C@@H]5[C@@H](O)[C@@H](C)CN5C(=O)[C@H]([C@H](O)CC(N)=O)NC(=O)[C@H]([C@H](O)[C@@H](O)c5ccc(O)c(OS(=O)(=O)O)c5)NC(=O)[C@@H]5C[C@@H](O)CN5C(=O)[C@H]([C@@H](C)O)NC4=O)cc3)no2)cc1: “intrinsic biliary clearance” 25.5 ± 15.7 mL/min/kg (human hepatocytes, adult).
O=C1O[C@@H]2[C@@H](OC(=O)c3cc(O)c(O)c(O)c3-c3c1cc(O)c(O)c3O)[C@H](O)O[C@@H]1COC(=O)c3cc(O)c(O)c(O)c3-c3c(O)c(O)c4oc(=O)c5c(c(O)c(O)c6oc(=O)c3c4c65)-c3c(cc(O)c(O)c3O)C(=O)O[C@@H]21 — result for toxicity: “not toxic” (rat; oral, 6 % in diet, 37 days).
CC(C)[C@H](C(=O)Nc1ccc(C(=O)NO)cc1)c1ccccc1 — result for “maximum tolerated dose”: 60 mg (patients with solid tumours; three times weekly).
With CN[C@H]1C(=O)N[C@@H]2Cc3ccc(cc3)Oc3cc4cc(c3O[C@@H]3O[C@H](C(=O)O)[C@@H](O)[C@H](O)[C@H]3NC(=O)CCCCCCCCC(C)C)Oc3ccc(cc3Cl)[C@@H](O)[C@@H]3NC(=O)[C@H](NC(=O)[C@@H]4NC(=O)[C@@H](NC2=O)c2cc(cc(O)c2Cl)Oc2cc1ccc2O)c1ccc(O)c(c1)-c1c(O[C@H]2O[C@H](CO)[C@@H](O)[C@H](O)[C@@H]2O)cc(O)cc1[C@@H](C(=O)NCCCN(C)C)NC3=O the AUC(0-120) was 6900 µg·h/mL (adult humans; intravenous, 1000 mg single dose, median, program).
With CCOc1ccc2cc(-c3nn(CC4CCN(C)CC4)c4ncnc(N)c34)ccc2n1 the plasma concentration was > 300 µM (mouse; 50 mg/kg, 5 days, accumulated).
For Cc1cnc2ccc3c(nc(N(O)[C@@H]4O[C@H](C(=O)O)[C@@H](O)[C@H](O)[C@H]4O)n3C)c2n1, “urinary excretion of MeIQx metabolite” read 9.4 ± 3% (GC-MS, refers to: 2-hydroxy-3,8-dimethylimidazo[4,5-f]quinoxaline; human; concentration not given; reference: dose).
C=CC(=O)N1CCC(Oc2cc3c(Nc4ccc(Cl)c(Cl)c4F)ncnc3cc2OC)CC1 — result for “maximum tolerated dose”: 24 mg/day (advanced solid tumour patients; intermittent dosing).
Cn1c(=O)c2[nH]cnc2n(C)c1=O gave an aqueous solubility of 6.75 mg/mL (≈ 37.5 mM) (water; hydrate form).
Clc1cc2c(cc1Cl)Oc1cc(Cl)c(Cl)cc1O2 has a body burden of ~5 ppb (zebrafish embryos; waterborne, 50 ppt, repeated at 4.8 and 31.2 hpf).
CN(C)C(=O)C(CCN1CCC(O)(c2ccc(Cl)cc2)CC1)(c1ccccc1)c1ccccc1 gave a pKa of 8.7.
With CCCCCOc1ccc(-c2cc(-c3ccc(C(=O)N[C@H]4C[C@@H](O)[C@@H](O)NC(=O)[C@@H]5[C@@H](O)[C@@H](C)CN5C(=O)[C@H]([C@H](O)CC(N)=O)NC(=O)[C@H]([C@H](O)[C@@H](O)c5ccc(O)c(OS(=O)(=O)O)c5)NC(=O)[C@@H]5C[C@@H](O)CN5C(=O)[C@H]([C@@H](C)O)NC4=O)cc3)no2)cc1 the clearance was 1170 mL/h (adults with invasive candidiasis; 100 mg daily, steady state).
For C=CCC1=C(C)C(OC(=O)[C@@H]2[C@@H](C=C(C)C)C2(C)C)CC1=O (some centres unmarked), the LD50 was 425 mg/kg (rat or mouse; oral).
With O[C@@H]1[C@@H]2OP(O)(=S)OC[C@H]2O[C@H]1n1cnc2cc(Cl)c(Cl)cc21 (single isomer, unassigned) the log Kw was 2.99 (methanol/water).
The LD50 of CC1(C)C(C=C(Cl)Cl)C1C(=O)OCc1cccc(Oc2ccccc2)c1 (centres unmarked) is reported as 383 mg/kg (rat or mouse; oral).
CN(C)CCO gave a dose eliminated of ~13.5% (male Wistar rat; intravenous, 11 mg/kg, 24 h).

Repeated from above:
CC1(C)CCC(CN2CCN(c3ccc(C(=O)NS(=O)(=O)c4ccc(NCC5CCOCC5)c([N+](=O)[O-])c4)c(Oc4cnc5[nH]ccc5c4)c3)CC2)=C(c2ccc(Cl)cc2)C1 gave an AUC increase of 6.4 fold (human, non-Hodgkin's lymphoma patients; 50 mg single dose, added: ketoconazole 400 mg once daily; reference: without ketoconazole).
For Nc1nc(N)nc(N)n1, kidney findings read “negative” (wet-mount and histology; rat fetuses and neonates, kidney; 1000 mg/kg/day to dams).
CC1=C(/C=C/C(C)=C/C=C/C(C)=C/C(=O)O)C(C)(C)CCC1 gave a Cmax of ~1000 nM (rat, plasma; concentration not given, at LOAEL).
For CCN(CCCOc1ccc2c(Nc3cc(CC(=O)Nc4cccc(F)c4)n[nH]3)ncnc2c1)CCOP(=O)(O)O, “maximum tolerated dose” read 1200 mg (elderly AML patients, age ≥sample A years; monotherapy, Western population).
CC(C)C[C@H](NC(=O)[C@H](Cc1ccccc1)NC(=O)c1cnccn1)B(O)O — result for “maximum tolerated dose”: 1.2 mg/m² (children with refractory solid tumours; intravenous).
[Cl][Mn][Cl] gave a Cmax of 53 nM (plasma; concentration not given).
